Published values from different studies.
Parts stem from different laboratories: compare values within a part only.

Series 1
Target: RNA binding protein fox-1 homolog 2, RRM domain, GST-SBP tag (RBFOX2, Homo sapiens, UniProt O43251-10, residues 100-194)
Method: RNA Bind-n-Seq
Form: RNA
Medium: in vitro
Tested at: 365 nM
Notes: natural RNA segment, single round, ends assumed
Baseline: no-protein control
Direction: higher = stronger binding
Target sequence (chain): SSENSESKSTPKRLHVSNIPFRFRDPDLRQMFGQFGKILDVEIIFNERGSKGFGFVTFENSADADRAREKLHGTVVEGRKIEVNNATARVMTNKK
Oligonucleotide | RBNS enrichment (R)
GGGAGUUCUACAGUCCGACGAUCGGGGAGGGGUUUGGGUCCUCACACUGAGAGCUUAUACCCAGUUGGAGCCCAAGAAGAGCUAGACUGACCCUGUAAACUUAGGGUUCCAUUUGGUCUUAACACUAUGGGCUUGGAAUUCUCGGGUGCCAA | 0.529
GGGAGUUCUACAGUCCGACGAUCAACAGUAACAGCCCACGGCAGUGUGACCUUCUAAACUUCAGCGAAGUCACUGGUGGCUUUAAAUAACCCAGCGUUGUUCCUCCACACGGCUUUGGUACUCUCUACCUCUUUGGAAUUCUCGGGUGCCAA | 0.383
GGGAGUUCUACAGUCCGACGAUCUCUGUAUAUAGGGCACAGGUGAAGACAUUGUCCAAAGCUUAUUUAUUUAUCUAUUUAUUUACCCUGGGCGAGUAACCACACCAGUGGGGGGGAAAAAACUAAAAUGUGUGUGGAAUUCUCGGGUGCCAA | 0.618
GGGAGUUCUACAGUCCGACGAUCCCAUCUCCCAGACCAAGGGGGCGAGGGGGUUGAGUGGAGUCUUCCCUUCAAAGCAGGGAAGAAUACCUGACUCGUUGCUUCGCAGAGCUGCUUUGACCUGCAGAGACUUGUGGAAUUCUCGGGUGCCAA | 0.319
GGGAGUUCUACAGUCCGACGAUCUAUCUGUUUUGUAAGUCUGCAUUUUUGUAUAUCGGAUUUACCUUAAGCUUCUCUAGUGAGGCAUUCUGAGCAGUGGUGAUCACAUGCCAGAUCGCCCUGCCUAUCCACAAUGGAAUUCUCGGGUGCCAA | 0.643
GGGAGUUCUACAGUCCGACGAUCAAAGCAAAUAUAUUUAGGCCAGGGUCUCACUGAGGGGGAGCUGUCUUGUCAUCUUUUAGAGUAAACUAUUCUAUAAACAUAUGCAAACAGCCCUAAAUAAAUCUAAAGUCUGGAAUUCUCGGGUGCCAA | 0.485
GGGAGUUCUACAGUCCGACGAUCUGUAAGUUGGUUUUCUUAUUUGUUGGUUUUUACGUGUGUAUAUGAGUGGUGGGUAUUGAUUAGGCCAUCAUUUCAAGAGAGUAGAUGCUAAGUUGGAUUUCGUGCUGCUGUGGAAUUCUCGGGUGCCAA | 0.708
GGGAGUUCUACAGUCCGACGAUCUGGCUUCUGAAGUGGUCAGGGCCAUGGCUGACACCUCCAGGUCCGCCUGGCAUGGGACACCAAGUGGAAGGCCCAAGCAGCUCAUCUGCUCUUGGGACCAGGGGCCAGUUUGGAAUUCUCGGGUGCCAA | 0.423
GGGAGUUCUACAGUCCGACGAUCCUGUUGCUCUAGGAGGCUCCUGCUGGCUUGGUAGAAGACAGAAUUCGAUCUGCCUGUCCCUUUUUCCCCUGGGGUUUGACACACAGGCUCCUCUCAGCAUGAGGUGGAGCUGGAAUUCUCGGGUGCCAA | 1.85

Series 2
Target: RING finger protein unkempt homolog, zinc fingers 1-6, GST-SBP tag (UNK, Homo sapiens, UniProt Q9C0B0, residues 30-357)
Method: RNA Bind-n-Seq
Form: RNA
Medium: in vitro
Tested at: not given
Notes: RNA with constant flanks, human and mouse sites, ends assumed
Baseline: input RNA pool
Direction: higher = stronger binding
Target sequence (chain): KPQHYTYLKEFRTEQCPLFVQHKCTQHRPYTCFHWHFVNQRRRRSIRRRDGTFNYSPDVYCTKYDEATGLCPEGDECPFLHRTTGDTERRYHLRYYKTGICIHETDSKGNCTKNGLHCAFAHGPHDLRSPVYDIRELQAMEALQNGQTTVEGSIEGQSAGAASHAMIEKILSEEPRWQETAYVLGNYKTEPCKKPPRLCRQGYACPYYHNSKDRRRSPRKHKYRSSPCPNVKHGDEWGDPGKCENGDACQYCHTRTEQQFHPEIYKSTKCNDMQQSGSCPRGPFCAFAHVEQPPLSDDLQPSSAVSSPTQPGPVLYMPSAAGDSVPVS
Oligonucleotide | bound/input enrichment
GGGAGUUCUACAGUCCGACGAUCAGAAACUGGACCAUCAACCGGCUUAAUGGUGAUUUUGCUCAGCUCAAUUUAAAGAUAAAAUUUUUGGAAGCUGGUAUCUAUGAAGUUCCCAUCAUUAUCACAGAUUCAGGGAAUCCCCCCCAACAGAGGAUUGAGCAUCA | 0.514 ratio
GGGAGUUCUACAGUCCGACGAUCGGAAAUCGGGCUGAAGCGACUGAGUCCGCGAUGGAGAGAGAAAAGGAACAGUUCCGAAAGCUCUUUAUUGGUGGCUUAAGCUUUGAAACCACAGAAGAAAGUUUGAGAAACUACUAUGAGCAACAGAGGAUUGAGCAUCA | 0.221 ratio
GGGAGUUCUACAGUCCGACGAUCAAGUUAUAACUGGCAUCUACUUCUUGUUCUUCUAGAACACCGAAAAUCUCUCCCAGCACUUUAGAAAGGGGACCCUGACUGUGUUAAAGAAGAAGUGGGAGAACCCAGGGCUGGGAGCAGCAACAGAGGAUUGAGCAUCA | 0.138 ratio
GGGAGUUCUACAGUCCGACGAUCAAGACCAUCACCCUGGAAGUGGAGCCCAGUGACACCAUCGAAAAUGUGAAGGCCAAGAUCCAGGAUAAAGAAGGCAUCCCUCCCGACCAGCAGAGGCUCAUCUUUGCAGGCAAGCAGCUGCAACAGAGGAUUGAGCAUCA | 0.045 ratio
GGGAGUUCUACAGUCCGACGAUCUUGGCCUCCAACCCCAUCAUGGAGUCAAUUGGAAAUGCCAAAACAACCAGGAAUGAUAAUAGCAGCCGGUUUGGAAAAUAUAUUGAAAUUGGUUUUGACAAGAGGUACAGAAUCAUCGGUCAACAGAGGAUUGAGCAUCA | 0.419 ratio
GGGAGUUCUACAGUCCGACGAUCCAUCCAGGUGAUGGAUGGGGAGAAGGAUCCCCGUAAUCUCCUGCUGGCUUUCCGCAUCGUCCAUGACCUCAUCUCCAAGGACUACAGUCUGGGACCUUUCGUGGAAGAGUUAUUUGAAGUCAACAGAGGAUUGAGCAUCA | 0.0471 ratio
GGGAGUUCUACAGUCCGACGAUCGCUGAAGUACCACACAUUAGAGAAAGUGUAAUGAGACAAGGGCGCCAUCUGUGUUUCCAGUUAGUAAGUCCAACAGGAACAGCUGUUUCAACUCUUAGUUACAUAAGCAGGACAAAUCAGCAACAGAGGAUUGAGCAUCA | 0.463 ratio
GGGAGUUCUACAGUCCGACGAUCAGACGGUAAACAUCUGGAGUCAUUUGCUGGGUUUCUUUCUCUUCUUCACCCUGGGGAUAUAUGACAUGACAUCCGUGCUGCCUUCCGCCAGCGCAUCCAGAGAAGACUUUGUGAUUUGCUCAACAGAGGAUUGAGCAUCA | 0.273 ratio
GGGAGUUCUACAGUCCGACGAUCGUUUUGGUGACUGUCAAAAGGAACUUUGACAAAUGCAUUAGUAACCAAAUAAGGCAAAUGGAAGAAGUAAAGAUCUCAAAAAAGAGUAAAGUUGGAAUUCUUCCAUUUGUUGCUGAAUUUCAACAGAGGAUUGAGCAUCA | 1.03 ratio
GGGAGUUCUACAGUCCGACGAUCUAACUUAUUUUUCAUCAGAGUAUGACUGAAACAUGCUUCUACCAAAUACAAUAUAAAGAAUUAGGUAGUCCUAAUGCCUUUCCUAUAUUAUUUUUUUUUCCUUUUCCACACAAGACAACACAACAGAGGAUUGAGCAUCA | 5 ratio
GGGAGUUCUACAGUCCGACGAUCUUAAGUGUUCUCCGUUUGCUCCUUGUGACCAUGGGACUCCUCUUUGUUUUGCUCCUCCUCCUGAUCAUCCUUACUGAGUCUGACCUUGACGUUGCUUUUUUCCGAGAUAUCCGCCAGACCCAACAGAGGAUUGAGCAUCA | 0.224 ratio

Series 3
Target: Ras GTPase-activating protein-binding protein 1, full length (G3BP1, Homo sapiens, UniProt Q13283)
Chain of UniProt Q13283 (whole entry, looked up): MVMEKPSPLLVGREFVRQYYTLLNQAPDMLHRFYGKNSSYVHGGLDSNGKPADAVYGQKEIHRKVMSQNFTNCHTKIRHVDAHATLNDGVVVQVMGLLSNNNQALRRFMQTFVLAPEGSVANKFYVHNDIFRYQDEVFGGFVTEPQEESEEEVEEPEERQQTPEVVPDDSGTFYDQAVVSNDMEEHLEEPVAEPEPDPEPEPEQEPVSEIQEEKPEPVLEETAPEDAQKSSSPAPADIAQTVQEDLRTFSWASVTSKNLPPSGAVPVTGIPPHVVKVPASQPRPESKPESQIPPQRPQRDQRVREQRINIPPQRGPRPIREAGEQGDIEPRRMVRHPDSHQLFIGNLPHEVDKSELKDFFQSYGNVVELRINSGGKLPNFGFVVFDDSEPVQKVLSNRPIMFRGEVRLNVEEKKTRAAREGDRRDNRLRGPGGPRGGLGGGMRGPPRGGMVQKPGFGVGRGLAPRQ
Method: RNA Bind-n-Seq
Form: RNA
Medium: in vitro
Tested at: 200 nM
Notes: whole 134-nt RNA, ends assumed
Together with: 150 mM KCl
Baseline: input library
Direction: higher = stronger binding
Oligonucleotide | log2 enrichment
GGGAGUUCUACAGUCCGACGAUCUACCAAUUGGCCUUUAUUGACUGUAUCCAAAGGAUUUUUUGAAGGCACCAUUGCCAGCAAAGGUAAGUACCUAUUUCUCCCAUAGCACUUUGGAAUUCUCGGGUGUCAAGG | -0.551
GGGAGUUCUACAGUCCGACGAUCUCAAGUCCUGUGCUACACAUCGUAUGUACCGAAUCGGCCCGGGCCCGGGGCCCGGAAAGUAUUAUGUUACGCCGUUCGGAUCUGCACUUCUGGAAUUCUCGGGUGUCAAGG | -1.09
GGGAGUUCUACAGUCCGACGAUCCACAGACAACACGCACCCACACAGACACAGAGGGAAGGGGUUGGGAUGGGGACAGGGUGCGCAGCAGGGCGGGGUAGGACCCCAGCCCCUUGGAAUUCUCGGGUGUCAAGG | 1.84
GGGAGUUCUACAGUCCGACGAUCCACAGACAACACGCACCCACACAGACACAGAGGGAAGGGGUUGGGAUGGGGACAGGGUGCACAGCAGGGCGGGGUAAGACCCCAGCCCCUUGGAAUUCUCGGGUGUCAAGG | 1.96
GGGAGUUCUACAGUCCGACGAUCGCAGGAAGUAAAAACAAAAAAAAAUGCUUCGGAUAGUGGCAGGGGUGGGGGUUGCUAAGGAAAGGGUGGGAUGGGAGUGGGUAAAGAGUUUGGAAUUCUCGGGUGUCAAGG | 1.12
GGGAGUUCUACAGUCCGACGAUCUAACUUUAGAGGAGGAUCUGAUGGAUAUGGCAGUGGACGUGGAUUUGGGGAUGGCUAUAAUGGGUAUUGAGGAGGACCUGGAGGUGGCAAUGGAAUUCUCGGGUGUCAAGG | 0.372
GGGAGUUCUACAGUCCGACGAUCUGGGAGGUGGAUUUUGUUUAUUUUAUUAGCUCAUUUCCAGGGGUGGGAAUUUUUUUUUAAUAUGUGUCAUGAAUAAAGUUGUUUUUGAAAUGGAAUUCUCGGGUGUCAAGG | 0.2
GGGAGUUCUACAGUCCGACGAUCUAACUUUAGAGGAGGAUCUGAUGGAUAUGGCAGUGGACGUGGAUUUGGGGAUGGAUAUAAUGGGUAUGGAGGAGGACCUGGAGGUGGCAAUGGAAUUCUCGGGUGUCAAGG | 0.445
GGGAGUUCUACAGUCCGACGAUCACCAUGCAGGUGGGCAUCUUUGGGAAGUGGGGCACGGGGGGGAUAGGGAGGGGGGUAACACUUUGGGAACAGGUGGUCCCAGGUCGUUUCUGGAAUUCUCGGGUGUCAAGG | 0.971
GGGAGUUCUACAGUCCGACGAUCUAACUUUAGAGGAGGAUCUGAUGGAUAUGGCAGUGGACGGGGAUUUGGGGAUGGCUAUAAUGGGUAUGGAGGAGGACCUGGAGGUGGCAAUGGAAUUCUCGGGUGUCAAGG | 0.562

Series 4
Target: Sal-like protein 4, full length isoform B (SALL4, Homo sapiens, UniProt Q9UJQ4-2, residues 1-616)
Method: universal PBM
Form: double-stranded DNA, one strand shown
Medium: in vitro
Tested at: not given
Notes: 8-mer, flanks averaged, mean of replicates
Direction: higher = stronger binding
Oligonucleotide | E-score
CCGTCTAA | -0.136
ACCGCCCA | -0.301
GCTCACCC | -0.321
ATTGATCA | 0.24
TATTGGAA | 0.295
AGAGCGGC | -0.235
CCACACCA | 0.0473
ATAGAGGG | 0.118
ACTTCAGG | 0.00425
CGATTCCG | -0.135
ATGGGGTC | -0.26
GCATGAGA | -0.00563
AGTACAGG | 0.00612
CAGTTACC | -0.0508
CGTAAGTC | 0.0424
CTCAGCGA | 0.00344
CGTAAAAC | 0.0508
AACGGTGG | -0.0586
CCGGTCAG | -0.298
AAGAGTCC | -0.158
ACCGCGAA | -0.195
CGCGCCTC | -0.34
AAAATTCA | 0.323
CCTCCCGC | -0.274
ACTTAGGC | -0.259

Some of these lines once more (series 4):
Oligonucleotide | E-score
CCGGTCAG | -0.298
AAGAGTCC | -0.158
ACCGCGAA | -0.195
CGCGCCTC | -0.34
AAAATTCA | 0.323
CCTCCCGC | -0.274
ACTTAGGC | -0.259
